Measurements gathered from unrelated publications.
Each line is one published result; not all experiments were run side by side. Several values in a cell are separate wells, animals, samples, runs or records. ± marks the error that the study gave.
OPRM1: Mu-type opioid receptor (OPRM1, Homo sapiens, UniProt P35372)
Sequence of UniProt P35372 (whole entry, looked up): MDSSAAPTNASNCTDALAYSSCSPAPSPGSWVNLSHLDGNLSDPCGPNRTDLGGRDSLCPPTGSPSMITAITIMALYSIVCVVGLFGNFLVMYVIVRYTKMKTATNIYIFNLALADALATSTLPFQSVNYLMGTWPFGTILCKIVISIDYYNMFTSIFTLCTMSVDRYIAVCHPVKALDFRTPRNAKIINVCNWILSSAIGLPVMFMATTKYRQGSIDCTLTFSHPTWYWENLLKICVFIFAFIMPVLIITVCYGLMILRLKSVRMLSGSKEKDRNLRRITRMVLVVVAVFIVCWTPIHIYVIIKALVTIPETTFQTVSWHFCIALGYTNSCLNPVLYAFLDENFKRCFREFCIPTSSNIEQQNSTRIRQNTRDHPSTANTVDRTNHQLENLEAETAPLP

The inhibition of `CN[C@@H]1[C@H](O)[C@H](NC)[C@H]2O[C@]3(O)[C@H](O[C@@H]2[C@H]1O)O[C@H](C)C[C@H]3NC(=O)Cc1ccc(Cl)cn1` is reported as -2% (OPRM1; ligand displacement, radioligand; 10 µM).
The inhibition of `COc1cc2c(cc1NC(=O)c1cncn1C)C[C@H]1[C@H]3CCCC[C@@]23CCN1C` is reported as 43.6% (OPRM1; ligand displacement, radioligand; 10 µM).
`CS(C)(=O)=Nc1ccc(-c2ccc(-c3nc4cc(O[C@@H]5CO[C@H]6[C@@H]5OC[C@H]6O)[nH]c4cc3F)cc2)cc1` gave an inhibition of 15% (OPRM1; calcium signal, antagonist; 10 µM).
For `COc1ccc2c(c1)[C@]13CCCC[C@@H]1[C@H](C2)N(C)CC3`, the inhibition was 31% (OPRM1; ligand displacement, radioligand; 1 µM).
The inhibition of `COc1ccc(F)cc1S(=O)(=O)Nc1cnc2c(c1)C(=O)NCCO2` is reported as -7% (OPRM1; ligand displacement, radioligand; 10 µM).
For `C[C@@H](Cc1ccsc1)NC(=O)NC[C@H](Cc1ccc(O)cc1)N(C)C`, the Emax was 68 ± 7% (Mu-type opioid receptor, with Gi3 (OPRM1, Homo sapiens, UniProt P35372); receptor activation, agonist).
`C/C(=N\OCCCN1CCCCC1)c1ccc(C(F)(F)F)cc1` gave an activation of -1.49% (OPRM1; agonist, cAMP; 10 µM).
The inhibition of `COc1cc2c(cc1-n1ccnc1)C[C@H]1[C@H]3CCCC[C@@]23CCN1C` is reported as 34.5% (OPRM1; ligand displacement, radioligand; 1 µM).
The response of `N[C@H](C(=O)N1CCCC1)C1CCN(c2nccc3c(-c4ncc(Cl)cc4Cl)cccc23)CC1` is reported as -12% (OPRM1; functional response, agonist; 10 µM).
With `O=C(Cc1ccc(Cl)c(Cl)c1)N1CCNC2COCC(N3CCCC3)C21` (stereo not shown) the inhibition was at most 50% (OPRM1; radioligand binding; up to 20 µM, with: [3H]DAMGO).
With `Cc1sc2c(c1C)C(c1ccc(Cl)cc1)=NC(CC(=O)OC(C)(C)C)c1nnc(C)n1-2` (stereo not shown) the remaining binding was 104% (OPRM1; ligand displacement, radioligand; 1 µM).
For `Cc1cc(-c2ccc3ccccc3c2)nnc1NCCN1CCN(C)CC1`, antagonist activity read “negative” (OPRM1; antagonist; concentration not given).
For `CCc1nnc(-c2c(OC)cc(-c3cnc4cc(-c5cnn(C)c5)ccn34)cc2OC)o1`, the specific binding was 87.4% (OPRM1; agonist, radioligand binding; 10 µM; relative to: control).
With `O=C(O)c1ccc(-c2nc(-c3ccccc3Cl)c3sccn23)cc1` the specific binding was 99% and 98.6% (OPRM1; radioligand binding, safety screen panel; 10 µM; relative to: control).
`C[C@@H]1COCCN1c1nc(NCc2cccnc2C(F)(F)F)c2cccnc2n1` has an IC50 of 3.46 µM (OPRM1; binding; CEREP panel).
For `Cc1cc(Nc2nc(C[C@@]3(C(=O)O)CCN(Cc4cccc(Cl)c4F)[C@H](C)C3)cc(C)c2F)[nH]n1`, the activation was -0.34% (OPRM1; agonist; 10 µM).
